{"data": "Measurements of several laboratories", "note": "Every numbered part comes from another study and shows a few of its results, in no order. Substitutions count along the parent as printed."}
{"data": "Series 1", "target": "JDP2, bZIP domain (human)", "technique": "DHFR protein complementation", "sample": "yeast", "notes": "single substitutions, most at no-binding floor", "baseline": "wild-type JUN-FOS pair", "direction": "higher = stronger binding", "parent": "JUN, bZIP domain (human); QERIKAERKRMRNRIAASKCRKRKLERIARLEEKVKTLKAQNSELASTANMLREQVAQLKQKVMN; partner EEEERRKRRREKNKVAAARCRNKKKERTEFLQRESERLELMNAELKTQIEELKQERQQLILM"}
{"Variant": "A49Q", "binding fitness [natural log]": 0.198}
{"Variant": "V56H", "binding fitness [natural log]": -0.47}
{"Variant": "Q55L", "binding fitness [natural log]": 0.168}
{"Variant": "K36V", "binding fitness [natural log]": 0.328}
{"Variant": "S43N", "binding fitness [natural log]": 0.306}
{"Variant": "T48E", "binding fitness [natural log]": 0.221}
{"Variant": "L31A", "binding fitness [natural log]": 0.259}
{"Variant": "M51D", "binding fitness [natural log]": 0.322}
{"data": "Series 2", "target": "CCND1, cyclin fold, Cln2 fusion (human)", "technique": "yeast growth competition, sequencing", "sample": "yeast", "notes": "weak parent motif", "baseline": "not given", "direction": "higher = stronger binding", "parent": "CDC6 docking peptide (human); TLKGRRLVFDNQL; partner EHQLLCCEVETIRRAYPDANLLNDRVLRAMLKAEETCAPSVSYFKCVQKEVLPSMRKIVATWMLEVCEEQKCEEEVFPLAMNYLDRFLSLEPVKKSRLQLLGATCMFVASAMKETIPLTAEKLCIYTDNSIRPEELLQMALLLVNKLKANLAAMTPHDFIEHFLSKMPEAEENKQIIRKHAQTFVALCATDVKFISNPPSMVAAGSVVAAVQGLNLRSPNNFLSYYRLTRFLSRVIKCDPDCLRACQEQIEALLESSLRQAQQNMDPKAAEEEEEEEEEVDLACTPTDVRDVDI"}
{"Variant": "TLLGRRLVFDNQL [K3L]", "normalised enrichment score": 0.366}
{"Variant": "TYKGRRLVFDNQL [L2Y]", "normalised enrichment score": 0.485}
{"Variant": "TLKGRRLVFDNDL [Q12D]", "normalised enrichment score": 1.84}
{"Variant": "TLKGRRLVFDNQC [L13C]", "normalised enrichment score": 0.572}
{"Variant": "CLKGRRLVFDNQL [T1C]", "normalised enrichment score": -0.0167}
{"Variant": "TLKGRRLVFDNQR [L13R]", "normalised enrichment score": 0.0795}
{"Variant": "TNKGRRLVFDNQL [L2N]", "normalised enrichment score": -0.282}
{"Variant": "TLKVRRLVFDNQL [G4V]", "normalised enrichment score": 0.141}
{"data": "Series 3", "Variant": "D48G", "target": "ABI1, truncated, D143A, DHFR fusion (Arabidopsis thaliana)", "technique": "DHFR PCA, deep sequencing", "sample": "yeast", "notes": "methotrexate growth selection, single substitutions", "baseline": "wild-type fitted maximum", "direction": "higher = stronger binding", "parent": "PYL1, truncated, DHFR fusion (Arabidopsis thaliana); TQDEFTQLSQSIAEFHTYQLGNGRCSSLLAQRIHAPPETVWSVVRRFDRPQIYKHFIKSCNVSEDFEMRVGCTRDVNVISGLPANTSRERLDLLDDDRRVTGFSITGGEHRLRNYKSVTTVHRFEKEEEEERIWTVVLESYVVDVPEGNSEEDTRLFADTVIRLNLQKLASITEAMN"}
{"with": "(+)-ABA 1.4 µM", "relative binding score [%]": 3.68}
{"with": "(+)-ABA 710 µM", "relative binding score [%]": 78.6}
{"with": "(+)-ABA 0.0091 µM", "relative binding score [%]": 2.58}
{"with": "(+)-ABA 0 µM", "relative binding score [%]": 1.82}
{"with": "(+)-ABA 2500 µM", "relative binding score [%]": 87.4}
{"with": "(+)-ABA 0.032 µM", "relative binding score [%]": 6.55}
{"data": "Further values, each from its own experiment"}
{"Sequence": "CSDSDGLAP", "target": "HLA class I histocompatibility antigen, A alpha chain, allele A*80:01 (Homo sapiens, UniProt P04439)", "effect on": "peptide-MHC binding", "molecule type": "peptide", "tested at": "concentration not given", "measurement": "binding", "value": "inactive"}
{"note": "For quick reference, copied from above (series 1):"}
{"Variant": "K36V", "binding fitness [natural log]": 0.328}
{"Variant": "S43N", "binding fitness [natural log]": 0.306}
{"Variant": "T48E", "binding fitness [natural log]": 0.221}
{"Variant": "L31A", "binding fitness [natural log]": 0.259}
